Measurements from different studies.
A part holds a random share of what one study measured. Substitutions count along the parent as printed.

Set 1 — method: RNA Bind-n-Seq; molecule type: RNA; matrix: in vitro; concentration: 100 nM; relative to: input RNA pool; direction: higher = stronger binding
Target: RING finger protein unkempt homolog, zinc fingers 1-6, SBP tag (UNK, Homo sapiens, UniProt Q9C0B0, residues 30-357)
Chain of UniProt Q9C0B0 (30-357, looked up): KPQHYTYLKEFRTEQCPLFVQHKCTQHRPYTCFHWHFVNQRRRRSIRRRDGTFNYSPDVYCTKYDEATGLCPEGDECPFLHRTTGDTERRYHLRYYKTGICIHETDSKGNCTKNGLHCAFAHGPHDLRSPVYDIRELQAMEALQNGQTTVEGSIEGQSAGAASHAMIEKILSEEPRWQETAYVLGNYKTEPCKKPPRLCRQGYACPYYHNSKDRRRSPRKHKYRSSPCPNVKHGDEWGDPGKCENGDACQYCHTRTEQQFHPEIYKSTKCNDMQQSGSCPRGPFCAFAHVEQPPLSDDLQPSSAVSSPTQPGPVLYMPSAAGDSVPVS
Notes: RNA with constant flanks, vertebrate orthologous sites, ends assumed
With `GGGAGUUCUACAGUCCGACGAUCCAUGACCUUGUUACUGUGAUAUUUUAAAUAUCCACAGUACUCACUUUUUCCAAAUGAUCCUAGUAAUUGCCUAGAAAUCUUUCUCUUACCUGUUAUUUAUCAAUUUUUCCCAGUAUUUUUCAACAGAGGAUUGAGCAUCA` the bound/input enrichment was 1.48 ratio.
With `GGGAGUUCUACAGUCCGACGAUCUUGGUUUAUUUUUUGUGUUGGUGUUUUUUGUUUUUUUGUUUUGUUUUUUGUUUUUGUCCUUUUGCUCAAGACUUUCUUUAAGGGCAACAUAAACUAAAAGUGAAACCUUAGGGAUUUUUUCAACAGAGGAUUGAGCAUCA` the bound/input enrichment was 1.05 ratio.
For `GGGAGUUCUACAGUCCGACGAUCAUUCAGACCUGUGGUACCAUGGCCUCAUGUUGAAGGAGUAGAAGUGGACUUAGAGUCUAUUAGAAGAAAAAACAAGGCCAAAAAUGAACAAGAGCACCGUGCUGGUGGAGAUUCCCAGAACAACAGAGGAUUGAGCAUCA`, the bound/input enrichment was 0.384 ratio.
`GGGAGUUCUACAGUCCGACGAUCAGUGGAUACAACAUAGGAACAUCCAAGGUACUGACUGCAGCUUUAGAUACGUGAUUAGUGUGAGAGUCACAUUCUCUGUGUGAAGAUACAUGUCUUUGAGUAAAUUUCAUCUUUAAUUUUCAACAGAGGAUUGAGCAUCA` gave a bound/input enrichment of 0.548 ratio.
For `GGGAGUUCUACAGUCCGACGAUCAGCAGGCCAGGGAUUGAGGCCCACCUUCCCACAUGUACCAAGUAGGUAUGGAAACAACAGGACAGGACAGCCAAGACCUUGAAGGACUUUAACUUAUUUUUAUGAGGAAUGUCGACUCCUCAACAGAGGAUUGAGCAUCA`, the bound/input enrichment was 0.573 ratio.
For `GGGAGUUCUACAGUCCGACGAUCGCACAUGCCACUGUCGCCAAAAACAAAAUACCACUUUCCAAAUUUCAUUCAGAGCCAUUUUAGUGUUUUCCUAUUCCCUACCCCUCCCACUACUUUCAAUGAUGACAUACCCUAAGUUCUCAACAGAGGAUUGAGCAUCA`, the bound/input enrichment was 3.38 ratio.
The bound/input enrichment of `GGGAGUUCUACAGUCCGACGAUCUCUAAAGUUAUAGGAAAGGAGCCAAGUAGUAGCACCUUUUUAUGUAAACGUGAAAACAACUUGAUCCAGCCUCUUUCCUUACACUCAAUUUAAAAGUAGAAAAUACCUCAGCAGUUGUUUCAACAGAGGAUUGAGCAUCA` is reported as 0.338 ratio.
For `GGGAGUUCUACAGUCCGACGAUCCCCUUUCUCCCCAGCUGAGGGAGUUCAGGGAGCCCAGGACGACCCUCAACUGUUCCAAUCCAGUAUUUUUUUCUUUUUUUAAAAUUACUGUAUUUAUUAUGACGAUGGUGACUCCCCAGUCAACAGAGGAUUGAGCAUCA`, the bound/input enrichment was 0.365 ratio.
For `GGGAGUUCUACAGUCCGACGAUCAUCCCUGAGUGACAGUAUGCCAUCUGUAGCGGAUUCGCACUCUAGUCAUUUUUCUGAAUUUAGUUGUUCUGACCUAGAAAGCAUGAAAACUUCUUGUAGUCAUGGUUCCAAUGAUUAUCACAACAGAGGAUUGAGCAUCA`, the bound/input enrichment was 0.579 ratio.
For `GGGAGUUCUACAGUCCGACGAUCGGGCGGCCGGUGGGGGAAUCCCCUGCCUUGGCCUUGCCUCCCCUUCCUGCCACGUGCCCCUAGUUAUUUUUUUUUUUUUAACACCAUGUGAUUAAGGUCGGCGCUGCCUCCCCCGACCCACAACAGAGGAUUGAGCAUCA`, the bound/input enrichment was 3.6 ratio.
For `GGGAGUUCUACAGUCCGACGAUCCUCUACGGGCCUCGCAGAGUUGAAAUAAUGGAAGAGGAGAAUGAACAGUAAUCUGCAUUAGUAUUUAUGCUUAGGUGUGAAAUGUUAUUUGAUCAUUUCUAUAAUCCAGAGCUUUAGAGACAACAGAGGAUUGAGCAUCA`, the bound/input enrichment was 0.807 ratio.

Set 2 — method: protein binding microarray; molecule type: double-stranded DNA, one strand shown; matrix: in vitro; concentration: not given; relative to: not given; direction: higher = stronger binding
Target: Histone acetyltransferase KAT6A, winged helix 2, GST fusion (KAT6A, Homo sapiens, UniProt Q92794, residues 85-181)
Notes: 8-mer, flanks averaged, mean of 2 arrays, mostly near background
Target sequence (chain): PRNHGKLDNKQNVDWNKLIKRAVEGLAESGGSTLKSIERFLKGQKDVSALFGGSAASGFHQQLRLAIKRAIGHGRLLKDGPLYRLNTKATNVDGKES
`CGTTGCTA` has an E-score of 0.0804.
The E-score of `AAATCCCC` is reported as -0.0713.
For `GCGAAAAC`, the E-score was 0.2.
The E-score of `CTGTGGAC` is reported as -0.11.
The E-score of `ATCGCGAC` is reported as 0.142.
`AGCACGAA` has an E-score of 0.0565.
`ACGGTACC` has an E-score of 0.0384.
With `ATGGGCGG` the E-score was 0.104.
The E-score of `CGATACCC` is reported as -0.11.
For `GCGCTTCA`, the E-score was 0.104.
`AGGAGGTC` gave an E-score of 0.00881.
`CCAATTCC` gave an E-score of 0.123.
`CGAAGAGA` gave an E-score of 0.123.
For `ATTGATGA`, the E-score was -0.0767.
With `AAGGCTAA` the E-score was 0.0302.
The E-score of `GCTTACCA` is reported as 0.181.
`GACCTAGC` gave an E-score of 0.0523.
`CGGGAGCA` has an E-score of 0.16.
`TGAACTCA` has an E-score of 0.0123.
With `CTACCATC` the E-score was -0.114.

Set 3 — method: DHFR PCA, deep sequencing; matrix: yeast; with: (+)-ABA 710 µM; relative to: wild-type fitted maximum; direction: higher = stronger binding
Target: ABI1, truncated, D143A, DHFR fusion (Arabidopsis thaliana)
Notes: methotrexate growth selection, single substitutions
Parent: PYL1, truncated, DHFR fusion (Arabidopsis thaliana); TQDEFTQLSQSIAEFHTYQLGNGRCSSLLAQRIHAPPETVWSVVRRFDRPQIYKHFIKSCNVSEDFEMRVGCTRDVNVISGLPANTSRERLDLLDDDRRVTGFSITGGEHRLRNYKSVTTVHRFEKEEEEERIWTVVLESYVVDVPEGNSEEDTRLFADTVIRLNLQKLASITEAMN
For `V62L`, “relative binding score” read 101%.
`S104G` — result for “relative binding score”: 59%.
`Q19V` — result for “relative binding score”: 107%.
`K116T`: “relative binding score” 103%.
For `E64M`, “relative binding score” read 97.8%.
`K54Y` — result for “relative binding score”: -3.43%.
For `P36W`, “relative binding score” read 85.8%.
For `T39W`, “relative binding score” read 97.6%.
`Y115K`: “relative binding score” 6.7%.
`E109P` — result for “relative binding score”: 83.7%.
`L20P`: “relative binding score” 102%.
For `R123N`, “relative binding score” read 105%.
`P146L`: “relative binding score” 65%.
For `R49L`, “relative binding score” read 87.2%.
`T173R`: “relative binding score” 25.8%.
For `K54T`, “relative binding score” read -22.3%.
Under “relative binding score”, `L166A` is recorded as 12.4%.
Under “relative binding score”, `I52T` is recorded as 106%.
For `T154H`, “relative binding score” read -29%.
`Q10L`: “relative binding score” 94%.
`R163N` — result for “relative binding score”: 93%.
For `G108K`, “relative binding score” read 46.2%.
Under “relative binding score”, `I133N` is recorded as 116%.
`R24W` — result for “relative binding score”: 83.4%.
`L8F`: “relative binding score” 99.7%.

Set 4 — method: RNA Bind-n-Seq; molecule type: RNA; matrix: in vitro; concentration: 365 nM; relative to: no-protein control; direction: higher = stronger binding
Target: RNA binding protein fox-1 homolog 2, RRM domain, GST-SBP tag (RBFOX2, Homo sapiens, UniProt O43251-10, residues 100-194)
Notes: natural RNA segment, single round, ends assumed
Construct (chain): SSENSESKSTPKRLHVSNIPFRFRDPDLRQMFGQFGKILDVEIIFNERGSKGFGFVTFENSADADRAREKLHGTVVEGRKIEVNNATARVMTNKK
`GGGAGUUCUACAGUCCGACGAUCAGCUGUGGUCUUAAAUACUAGACCAGGUUUAGUAGCUCUGUUUUGUCAGUUUUCUAUUUGCCCUCUUGAGUACAGGGAUGGAUGGAUGGCUGCUCAACACACUCCUCCCCUGGAAUUCUCGGGUGCCAA`: “RBNS enrichment (R)” 0.349.
For `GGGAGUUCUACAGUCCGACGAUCAUUUGAUGUGUUGCCUGGCAGGAUACUGCAAAGAACAUGGUUUAUUUUAAAAUUUAUAAACAAGUCACUUAAAUGCCAGUUGUCUGAAAAAUCUUAUAAGGUUUUACCCUUGGAAUUCUCGGGUGCCAA`, “RBNS enrichment (R)” read 1.47.
`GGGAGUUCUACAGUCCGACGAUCAUGCCUGUCUUUGAGAGGAAGGUGUUAUAAUAUUAAUGAACAGUGCCAAAUACACUGUGCAUAUCUGCAAUUUAAUCUUUGAAUGUAUGUUACUGGAUUAGCUCCCUCCUUGGAAUUCUCGGGUGCCAA` — result for “RBNS enrichment (R)”: 0.266.
`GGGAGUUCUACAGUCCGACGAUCCUUUUGGUUUCCCAAAGCAAUAUUUUACUUUUCAUUUAUUAUAGUUUGAAAGACAUUUUUCAUUGUUCCAUUACCUAUAGAAAUGGUAUUUCAUGACCUAGGGAAAAAGGUGGAAUUCUCGGGUGCCAA`: “RBNS enrichment (R)” 0.359.
`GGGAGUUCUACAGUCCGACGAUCUUUUGGGAGCUCCUCCAUCUCCAAUGGCUGGGAUUUGUGGCAGGGAUUCCACUCAGAACCUCUCUGGAAUUUGUGCCUGAUGUGCCUUCCACUGGAUUUUGGGGUUCCCAUGGAAUUCUCGGGUGCCAA`: “RBNS enrichment (R)” 0.378.
For `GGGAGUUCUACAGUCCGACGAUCCCGAAAGAUGUUGUCAUUGGCAAUCUGCAGUUGCAAAGGGGGUAGGGUGGUCUCAGAAGGCACGAGGCUUCCUGCCUCUUCCCUCUUCCUCCUUGUAAGAGCUUCAACCCUGGAAUUCUCGGGUGCCAA`, “RBNS enrichment (R)” read 0.352.
Under “RBNS enrichment (R)”, `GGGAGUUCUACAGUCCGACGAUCUGAAAAUUAUGAAUUUUUUAUCCAUUACUAACCUUUAAUUUAAUCAAUCAUGUACUUUAGUUUAAUGUAUAAAGAUUUUCUAGGAAAUGAUAUUGUGUAUUAAGACAUUCUGGAAUUCUCGGGUGCCAA` is recorded as 0.507.
For `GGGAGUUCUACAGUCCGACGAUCACACCUGUCAGCCCAAGCAGAGUGAUUCAGGGGCUCCCCGGGGGCAGACACCUGUGCACCCCAUGAGUAGUGCCCACUUGAGGCUGGCACUCCCCUGACCUCACCUUUGCUGGAAUUCUCGGGUGCCAA`, “RBNS enrichment (R)” read 0.681.
`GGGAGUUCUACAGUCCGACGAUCGAUUAAGAGAGAGUAAUAUUAAUUGUGCAUGUGCAGUUGUAUUUCUCAUUAACUGACAGUAUGCCCAUUUGUUUUUAUGGCUUUCUUAUCUAAACUGCACUGAUGAACUAUGGAAUUCUCGGGUGCCAA`: “RBNS enrichment (R)” 4.31.
For `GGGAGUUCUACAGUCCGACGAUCGAACCUCCACAAGGCUAAAUAAAAUUACAUUUGUGACCAUCAGAGAACUGAAUAAACCAUUAACUGGCCAUCCUGGUUUUGCAGAGAUCAGGUUGUUGACAGUUCCUGGUUGGAAUUCUCGGGUGCCAA`, “RBNS enrichment (R)” read 0.304.
Under “RBNS enrichment (R)”, `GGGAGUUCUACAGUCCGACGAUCCUAUCUAUAUAAUGUAGUAUGAUGUAAUGUGGUCUUUUUUUUAGAUUUUGUGCAGUUAAUACUUAACAUUGAUUUAUUUUUUAAUCAUUUAAAUAUUAAUCAACUUUCCUUGGAAUUCUCGGGUGCCAA` is recorded as 0.701.
`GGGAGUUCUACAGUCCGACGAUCGUCUCUUGUUUUAUUUCUCUCUAAACUUGAAAACAGUAAAUCUGCAGAUACUGUGAGGCACAGAUUAUAUUGUCAAGCUACUGUUGCUAUGGUUAUAGACACCCACUUCAUGGAAUUCUCGGGUGCCAA`: “RBNS enrichment (R)” 0.447.
